# Assay results pooled from the literature.
# Several values in a cell are separate wells, animals, samples, runs or records. ± marks the error that the study gave.
Structure (SMILES),assay,test system,setting,scale,measurement,result
CC(=O)N[C@@H]1[C@@H](O)[C@H](O)[C@@H](CO)O[C@@H]1O,"binding, equilibrium dialysis LC-MS",,"5 µM, thermostabilized A2AR-BRIL construct","baseline: no-protein control, direction not given",z-scored log2 fold change,0.21
N#Cc1ccc2c(c1)[C@H]1CCCN(C(=O)c3ccc4[nH]cnc4c3)[C@H]1C2,,human clinical trial,"oral, 240 mg once daily, 28 d",baseline: placebo,diastolic blood pressure change,-2.3 mmHg
Nc1ncnc2c1ncn2[C@H]1C[C@H](O)[C@@H](COP(=O)(O)O)O1,"binding, equilibrium dialysis LC-MS",,"5 µM, thermostabilized A2AR-BRIL construct","baseline: no-protein control, direction not given",z-scored log2 fold change,-0.106
O=C(O)Cc1ccc(O)cc1,ABTS radical,,300 µg/mL,,radical scavenging,64.9 ± 1.33%
CO[C@H]1CC[C@H](N2C(=O)CNc3ncc(-c4ccc(C(C)(C)O)nc4)nc32)CC1,flow cytometry,"stimulated B cells, human, blood","45 mg single dose, 5 h, mean",baseline: baseline,pS6RP change from baseline,-74.5%
C[C@@H]1CCC[C@H](n2cnc(-c3cc(Cl)ccc3-n3cc(Cl)nn3)cc2=O)c2cc(ccn2)-c2c(cnn2C(F)F)NC1=O,,dog plasma,"IC2× aPTT, Actin FS reagent",,concentration for aPTT prolongation,1000 nM
CSCCNc1nc(SCCC(F)(F)F)nc2c1ncn2[C@@H]1O[C@H](COP(=O)(O)OP(=O)(O)C(Cl)(Cl)P(=O)(O)O)[C@@H](O)[C@H]1O,"platelet aggregation, light transmittance aggregometry","human, platelet-rich plasma","dose not given, 30 min, IPA above 90 %, added: TRAP 5 µM",baseline: patients,patients with IPA above threshold,5.1%
O=C1Nc2cc3[nH]nc(-c4ccncc4)c3cc2CN1Cc1ccccc1,RECIST v1.1,"human, relapsed or refractory advanced solid tumours","intravenous, 6.4 mg/kg",,"stable disease, best response",11%
FC(F)(F)Oc1cccc(-c2ccnc3[nH]c(C(F)(F)F)nc23)c1,,GAN diet MASH mice,"300 mg/kg, 31 days",baseline: GAN control,plasma cholesterol,no effect
CN(CCOc1ccc(CC2SC(=O)NC2=O)cc1)c1ccccn1 (racemic),,"C57BL/6 mice, diet-induced obese, L4 vertebra",,,BV/TV,6.7 ± 1.4%
Oc1nc2nonc2cc1Nc1c(F)c(F)c(F)c(F)c1F,,"obese C57BL/6J mice, Western diet 19 weeks","oral gavage, 130 mg/kg/day, fasting",,plasma free fatty acids,no effect
O=C(O)CNC(=O)Cc1ccccc1,,"ventricular cardiomyocytes, C57BL/6 mouse","dose not given, 0.7 s",,sarcomere length,1.72 µm
O=C(CO)[C@@H](O)[C@H](O)COP(=O)(O)O,"binding, equilibrium dialysis LC-MS",,"5 µM, thermostabilized A2AR-BRIL construct","baseline: no-protein control, direction not given",z-scored log2 fold change,0.268
Cc1oncc1C(=O)Nc1ccc(C(F)(F)F)cc1,refers to: dihydroorotate,"female CD-1 mice, pooled urine","oral, 10 mg/kg daily, 0-8 h after dose 10, 10-day dosing",,DHO concentration,378 ± 17.8 µM
N#Cc1ccc2c(-c3ccncc3)c(-c3ccc(F)cc3)nn2c1,"kinase binding, competitor, MIB/MS competition, refers to: KIN2",Candida albicans cell lysate,10 µM,baseline: DMSO,log2 fold change,-0.304
COc1cc2cc(-c3ccc(CC(=O)Nc4cc(C(C)(C)C(F)(F)F)no4)cn3)cnc2cc1OC,,human RET-altered advanced solid tumours,"75 mg, phase I other tumours, RECIST 1.1",,objective response rate,10%
O=CNCc1ccc(O)cc1,DPPH radical,,300 µg/mL,,radical scavenging,10.4 ± 1.78%
Cc1ccc([C@@H]2O[C@H](CO)[C@@H](O)[C@H](O)[C@H]2O)cc1Cc1ccc(-c2ccc(F)cc2)s1,,Japanese type 2 diabetes patients,"100 mg, day 2",baseline: day 1,change in fasting serum insulin,-1 µU/mL
COc1ccc(-c2cncc(N[C@@H](C)c3cccc(NC(=O)c4cncc(C)c4)c3)n2)cc1OC,refers to: rno-miR-143-3p,"rat SU5416/hypoxia model, lung",dose not given,baseline: SU5416/hypoxia vehicle,fold change,0.553
CCNC(=O)[C@@H]1CCCN1C(=O)[C@H](CCCNC(=N)N)NC(=O)[C@H](CC(C)C)NC(=O)[C@@H](CC(C)C)NC(=O)[C@H](Cc1ccc(O)cc1)NC(=O)[C@H](CO)NC(=O)[C@H](Cc1c[nH]c2ccccc12)NC(=O)[C@H](Cc1c[nH]cn1)NC(=O)[C@@H]1CCC(=O)N1,refers to: progesterone,healthy premenopausal women,"intramuscular, 3.75 mg, ovulation progesterone ≥3 ng/mL",,ovulation rate,0%
N[C@@H](Cc1ccc(O)c(I)c1)C(=O)O,"binding, equilibrium dialysis LC-MS",,"5 µM, thermostabilized A2AR-BRIL construct","baseline: no-protein control, direction not given",z-scored log2 fold change,0.495
c1ccc(-c2n[nH]cc2-c2ccnc3ccccc23)nc1,"kinase binding, competitor, MIB/MS competition, refers to: CKA2",Candida albicans cell lysate,1 µM,baseline: DMSO,log2 fold change,1.14
CCN1CCN(Cc2ccc(Nc3ncc(F)c(-c4cc(F)c5nc6n(c5c4)[C@H](C)CCC6)n3)nc2)CC1,,human advanced solid tumours,"400 mg, phase Ia monotherapy RECIST 1.1",,objective response rate,0%
C[C@H]1C[C@H]2CSC(N)=N[C@@]2(c2nc(NC(=O)c3ccc(OC(F)F)cn3)cs2)CO1,refers to: total Aβ,"healthy adults, plasma","3 mg single dose, 24 h post-dose",baseline: placebo,percent change from baseline,-27.7%
Cc1noc(C)c1-c1cc(C(O)(c2ccccn2)c2ccccn2)c2nc(C3CC3)[nH]c2c1,refers to: HEXIM1 expression,"human, peripheral blood","2 mg, day 8, 1599 study",,maximum induction,46.5%
C[C@H](NC(=O)c1c(C(F)F)nn(C)c1Oc1cccc(C(F)(F)F)c1)c1ccc(C(=O)O)cc1,irRECIST,"human, advanced tumours",125 mg,,objective response rate,0%
COc1ccccc1[C@H](Cn1c(=O)n(C(C)(C)C(=O)O)c(=O)c2c(C)c(-c3ncco3)sc21)OC1CCOCC1,,human,"200 mg, post-treatment",,blood Glucose level,91.9 ± 6.42 mg/dL
OCC(O)CO,ELISA,"female Gpd2 knockout mice, serum","oral in drinking water, 5 % w/v, 2 days",,plasma FGF21 level,338 pg/mL and 251 pg/mL and 265 pg/mL and 1700 pg/mL
CC(C)NCC(O)c1ccc(O)c(O)c1 (centres unmarked),,"ventricular cardiomyocytes, C57BL/6 mouse","dose not given, 0.244 s",,sarcomere length,1.58 µm
O=C1O[C@H]([C@@H](O)CO)C(O)=C1O,ABTS radical,,300 µg/mL,,radical scavenging,98.86 ± 0.15%
O=C[C@H](O)CO,"binding, equilibrium dialysis LC-MS",,"5 µM, thermostabilized A2AR-BRIL construct","baseline: no-protein control, direction not given",z-scored log2 fold change,-0.0352
COc1cc(Nc2ncc3c(n2)-c2ccc(Cl)cc2C(c2c(F)cccc2OC)=NC3)ccc1C(=O)O,,"female NOD/scid mice, ALL-2 B-precursor ALL xenograft","10.4 mg/kg, 5 days weekly, score scale 0 to 10",direction not given,median response score,8
CN(C)C(=O)Oc1cccc([N+](C)(C)C)c1,neuromuscular block reversal,rat,"dose not given, 7.5 (unit not given), added: cisatracurium",baseline: T1 twitch,train-of-four ratio,57
Cc1ccc(C(=O)Nc2ccc(CN3CCN(C)CC3)c(C(F)(F)F)c2)cc1C#Cc1cnc2cccnn12,platelet aggregation,platelet-rich plasma,"0.1 µM, DMSO 100, added: collagen 2 mg/mL",,aggregation,8.3%
NC(=O)c1cnc2[nH]ccc2c1N[C@@H]1[C@@H]2CC3C[C@H]1C[C@@](O)(C3)C2,"flow cytometry, refers to: CD4+ memory T cells","Japanese healthy subjects, peripheral blood","oral, 100 mg twice daily, day 7",,change from baseline,-0.72%
N#Cc1ccn2c(-c3ccncc3)c(-c3ccc(F)cc3)nc2c1,"kinase binding, competitor, MIB/MS competition, refers to: KIN2",Candida albicans cell lysate,100 nM,baseline: DMSO,log2 fold change,-0.305
O=C(OC(C(F)(F)F)C(F)(F)F)N1CCN(Cc2cccc(Oc3ccccc3)c2)CC1,PET,"rhesus monkey, hippocampus","intravenous, 0.1 mg/kg, pretreatment blocking, added: [18F]T-401",,tracer distribution volume,4.27 mL/cm3
C[C@@H](O)CCOC(=O)C[C@@H](C)O,refers to: non-esterified fatty acids,"human, plasma",60 min,,log2 level,-2.26 ± 0.89 mmol/L
O=CC[C@H](O)[C@H](O)CO,"binding, equilibrium dialysis LC-MS",,"5 µM, thermostabilized A2AR-BRIL construct","baseline: no-protein control, direction not given",z-scored log2 fold change,-0.283
C=CCn1c(=O)c2cnc(Nc3ccc(N4CCN(C)CC4)cc3)nc2n1-c1ccc2c(n1)[C@@](O)(CC)CC2,,"MDA-MB-436 xenograft, NOD/SCID mouse","oral, 60 mg/kg once daily for 38 days, day 40",,tumour volume difference,726 ± 37.6 mm3
OC(CCN1CCCCC1)(c1ccccc1)C1CC2C=CC1C2 (centres unmarked),resting-state EEG,healthy elderly humans,"oral, 2 mg, eyes closed, LS mean",,"power, EEG, Alpha, O2-Pz",20.3 µV²
Cc1n[nH]c2ccc(-c3cc(OC[C@@H](N)Cc4ccccc4)cnc3-c3ccoc3)cc12,"kinase binding, competitor, MIB/MS competition, refers to: ATG1",Candida albicans cell lysate,100 nM,baseline: DMSO,log2 fold change,-0.123
C[C@H](Oc1ccc(Br)cc1-c1ccon1)C(=O)O,first response peak,"human, tibialis anterior muscle","400 mg, 15 Hz, single ascending dose",,difference from placebo,5.47%
CC(=O)N[C@@H](CCC(=O)O)C(=O)O,"binding, equilibrium dialysis LC-MS",,"5 µM, thermostabilized A2AR-BRIL construct","baseline: no-protein control, direction not given",z-scored log2 fold change,0.393
NC1(C(=O)N[C@@H](CCO)c2ccc(Cl)cc2)CCN(c2nc[nH]c3nccc2-3)CC1,RECIST v1.1,human mCRPC patients,"dose not given, added: enzalutamide",,RECIST non-response rate,88.9%
O=C(O)CCCC[C@@H]1SC[C@@H]2NC(=O)N[C@@H]21,"binding, equilibrium dialysis LC-MS",,"5 µM, thermostabilized A2AR-BRIL construct","baseline: no-protein control, direction not given",z-scored log2 fold change,-1.38
Cn1cc(Nc2nccc(-c3ccc4c(c3)CN(C3COC3)CC[C@H]4NC(=O)c3cn(C(C)(C)C)nn3)n2)cn1,refers to: Th17 Activation Pathway,"splenic B cells, mouse","in vivo, 30 mg/kg, IgD-activated B cells","baseline: vehicle, positive = activation",pathway activation z-score,1.94
O=P(O)(O)C(Cl)(Cl)P(=O)(O)O,immunostaining,"mouse, SAH model, hippocampal fissure",dose not given,baseline: day 1 over day 7,Iba1-positive area difference,-1.52%
C[C@@H](NC(=O)N1C(=O)[C@H](Cc2ccnc(N)c2)[C@H]1C(=O)O)C1CCCCC1,,human,"iv infusion, 1.0 mg/kg/h, 24 h, unit not given",baseline: baseline,aPTT AUEC,205
COc1cc(O)c(CC=C(C)C)c(O)c1C(=O)/C=C/c1ccc(O)cc1,,"male Tac:SW mice, conventional and germ-free","in high-fat diet, dose not given",baseline: high-fat diet alone,hepatic and muscle triglycerides,no effect

# A few entries again:
Structure (SMILES),assay,test system,setting,scale,measurement,result
Cn1cc(Nc2nccc(-c3ccc4c(c3)CN(C3COC3)CC[C@H]4NC(=O)c3cn(C(C)(C)C)nn3)n2)cn1,refers to: Th17 Activation Pathway,"splenic B cells, mouse","in vivo, 30 mg/kg, IgD-activated B cells","baseline: vehicle, positive = activation",pathway activation z-score,1.94
COc1cc(O)c(CC=C(C)C)c(O)c1C(=O)/C=C/c1ccc(O)cc1,,"male Tac:SW mice, conventional and germ-free","in high-fat diet, dose not given",baseline: high-fat diet alone,hepatic and muscle triglycerides,no effect
OC(CCN1CCCCC1)(c1ccccc1)C1CC2C=CC1C2 (centres unmarked),resting-state EEG,healthy elderly humans,"oral, 2 mg, eyes closed, LS mean",,"power, EEG, Alpha, O2-Pz",20.3 µV²
CC(C)NCC(O)c1ccc(O)c(O)c1 (centres unmarked),,"ventricular cardiomyocytes, C57BL/6 mouse","dose not given, 0.244 s",,sarcomere length,1.58 µm
O=C(O)Cc1ccc(O)cc1,ABTS radical,,300 µg/mL,,radical scavenging,64.9 ± 1.33%
